Measured values collected from several papers.
Every numbered part comes from another study and shows a few of its results, in no order. Substitutions count along the parent as printed.
UniProt Q9H832, sequence (whole entry, looked up): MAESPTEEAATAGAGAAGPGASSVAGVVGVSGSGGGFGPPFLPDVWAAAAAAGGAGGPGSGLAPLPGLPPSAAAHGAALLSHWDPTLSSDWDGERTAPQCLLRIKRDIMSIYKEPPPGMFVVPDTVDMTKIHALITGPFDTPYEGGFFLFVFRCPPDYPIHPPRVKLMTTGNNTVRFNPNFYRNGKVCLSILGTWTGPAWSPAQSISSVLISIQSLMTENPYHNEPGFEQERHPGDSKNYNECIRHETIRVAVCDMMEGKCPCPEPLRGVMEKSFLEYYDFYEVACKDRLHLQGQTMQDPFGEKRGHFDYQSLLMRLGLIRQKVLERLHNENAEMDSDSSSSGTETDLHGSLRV
UniProt Q9C0C9, sequence (whole entry, looked up): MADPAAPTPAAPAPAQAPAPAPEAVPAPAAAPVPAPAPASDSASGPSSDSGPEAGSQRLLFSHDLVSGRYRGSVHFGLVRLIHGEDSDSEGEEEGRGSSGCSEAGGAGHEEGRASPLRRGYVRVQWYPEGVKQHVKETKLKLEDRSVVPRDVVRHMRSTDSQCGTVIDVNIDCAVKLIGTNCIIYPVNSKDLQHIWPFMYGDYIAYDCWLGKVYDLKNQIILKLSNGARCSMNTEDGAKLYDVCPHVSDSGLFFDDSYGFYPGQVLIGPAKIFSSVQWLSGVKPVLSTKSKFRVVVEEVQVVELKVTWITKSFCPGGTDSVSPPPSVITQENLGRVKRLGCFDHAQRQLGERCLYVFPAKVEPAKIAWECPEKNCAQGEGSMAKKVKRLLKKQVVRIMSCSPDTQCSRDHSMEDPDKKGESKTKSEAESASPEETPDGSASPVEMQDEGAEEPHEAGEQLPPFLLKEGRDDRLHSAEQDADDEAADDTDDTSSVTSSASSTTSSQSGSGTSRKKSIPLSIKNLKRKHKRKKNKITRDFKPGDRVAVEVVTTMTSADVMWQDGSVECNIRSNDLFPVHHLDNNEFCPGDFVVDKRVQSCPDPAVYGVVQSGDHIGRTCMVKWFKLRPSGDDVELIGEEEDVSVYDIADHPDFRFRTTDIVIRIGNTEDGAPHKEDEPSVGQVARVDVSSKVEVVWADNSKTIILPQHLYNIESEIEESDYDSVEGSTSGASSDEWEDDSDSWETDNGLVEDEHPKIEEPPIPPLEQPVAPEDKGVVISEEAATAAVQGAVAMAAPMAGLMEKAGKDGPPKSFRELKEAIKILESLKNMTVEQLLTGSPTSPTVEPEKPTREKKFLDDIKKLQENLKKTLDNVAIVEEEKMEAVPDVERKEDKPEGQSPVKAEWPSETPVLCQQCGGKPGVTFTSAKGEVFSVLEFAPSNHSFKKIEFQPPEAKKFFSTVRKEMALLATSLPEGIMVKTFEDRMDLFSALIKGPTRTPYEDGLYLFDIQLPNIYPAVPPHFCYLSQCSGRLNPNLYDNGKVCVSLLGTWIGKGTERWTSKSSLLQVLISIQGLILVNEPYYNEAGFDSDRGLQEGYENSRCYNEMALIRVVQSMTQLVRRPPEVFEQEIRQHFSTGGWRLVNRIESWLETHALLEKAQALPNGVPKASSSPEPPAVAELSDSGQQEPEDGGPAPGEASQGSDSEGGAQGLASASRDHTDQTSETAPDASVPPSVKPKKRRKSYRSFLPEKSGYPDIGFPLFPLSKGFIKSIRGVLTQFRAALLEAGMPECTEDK
UniProt P63146, sequence (whole entry, looked up): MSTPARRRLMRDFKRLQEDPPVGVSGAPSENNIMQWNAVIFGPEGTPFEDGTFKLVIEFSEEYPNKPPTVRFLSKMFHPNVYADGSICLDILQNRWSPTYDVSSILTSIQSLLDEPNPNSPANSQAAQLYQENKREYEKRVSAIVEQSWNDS
UniProt Q16763, sequence (whole entry, looked up): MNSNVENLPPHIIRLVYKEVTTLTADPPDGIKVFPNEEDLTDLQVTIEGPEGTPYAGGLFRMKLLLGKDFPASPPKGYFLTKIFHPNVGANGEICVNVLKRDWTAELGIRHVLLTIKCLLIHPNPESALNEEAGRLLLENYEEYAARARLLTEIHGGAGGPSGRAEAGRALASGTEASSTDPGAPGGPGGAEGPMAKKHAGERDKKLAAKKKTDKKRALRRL
UniProt Q9Y385, sequence (whole entry, looked up): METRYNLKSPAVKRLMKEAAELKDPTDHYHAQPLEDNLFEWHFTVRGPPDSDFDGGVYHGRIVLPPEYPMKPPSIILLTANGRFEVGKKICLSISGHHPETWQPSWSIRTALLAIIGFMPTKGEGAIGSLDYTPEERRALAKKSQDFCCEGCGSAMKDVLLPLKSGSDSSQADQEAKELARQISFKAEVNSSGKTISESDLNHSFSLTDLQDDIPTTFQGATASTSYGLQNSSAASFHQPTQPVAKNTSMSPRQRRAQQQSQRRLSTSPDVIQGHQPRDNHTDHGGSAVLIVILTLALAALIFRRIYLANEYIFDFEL
UniProt O00762, sequence (whole entry, looked up): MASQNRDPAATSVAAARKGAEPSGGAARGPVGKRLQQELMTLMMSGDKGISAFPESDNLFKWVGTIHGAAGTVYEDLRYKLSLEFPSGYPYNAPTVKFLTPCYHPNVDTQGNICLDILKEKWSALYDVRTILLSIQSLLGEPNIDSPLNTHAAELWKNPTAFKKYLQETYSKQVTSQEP

Sample 1
Target: Prothrombin, mature alpha-thrombin (F2, Homo sapiens, UniProt P00734)
Technique: aptamer microarray, sandwich
Molecule type: DNA with 2'F-ANA
Sample: in vitro
Concentration: 200 nM
Setting: whole 15-mer aptamer, many near background
Together with: Cy3 exosite-II aptamer, 400 nM
Reading: higher = stronger binding
Measurement: mean fluorescence intensity
Strand: GGTTGGTGTGGTTGG
2'F-ANA at 3 8 9 11 12 13 14: 791 a.u.
2'F-ANA at 5 8 9 10 11 13: 50.3 a.u.
2'F-ANA at 2 6 7 8 10 14: 89.8 a.u.
2'F-ANA at 2 3 5 6 7 8 10 12 14: 91.7 a.u.
2'F-ANA at 2 3 8 9 12 14 15: 500 a.u.
2'F-ANA at 1 2 3 6 7 13: 149 a.u.
2'F-ANA at 1 3 4 5 6 7 8 10 12 15: 85.6 a.u.
2'F-ANA at 1 2 3 6 8 9 10: 62.4 a.u.
2'F-ANA at 1 2 3 7 8 9 11: 235 a.u.
2'F-ANA at 2 6 10 13: 106 a.u.
2'F-ANA at 2 4 5 7 8 9 15: 75.9 a.u.
2'F-ANA at 6 7 9 10 11 15: 133 a.u.
2'F-ANA at 2 3 4 5 10 11 12 15: 56.1 a.u.
2'F-ANA at 1 3 5 7 10 12 15: 52.5 a.u.
2'F-ANA at 1 2 5 9 10 13 14: 52.8 a.u.
2'F-ANA at 1 2 3 8 12 13: 441 a.u.
2'F-ANA at 4 6 8 13 14 15: 81.9 a.u.
2'F-ANA at 2 4 6 8 9 11 13 14: 79.6 a.u.

Sample 2
Target: Histone acetyltransferase KAT6A, winged helix 1, GST fusion (KAT6A, Homo sapiens, UniProt Q92794, residues 1-85)
Technique: protein binding microarray
Molecule type: double-stranded DNA, one strand shown
Sample: in vitro
Concentration: not given
Setting: 8-mer, flanks averaged, mean of 2 arrays, mostly near background
Reference: not given
Reading: higher = stronger binding
Measurement: E-score
Target sequence (chain): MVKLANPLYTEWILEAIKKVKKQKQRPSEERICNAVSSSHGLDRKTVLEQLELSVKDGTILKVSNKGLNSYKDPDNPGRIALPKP
ATAGTAAG: -0.0762
GTGGGTTA: -0.0648
GCAAACAC: 0.0687
ACCTCGAT: -0.0942
ATGTTTAG: -0.0765
CAAACTTA: 0.0676
GAGGTGTA: 0.00498
CGCGCTAG: 0.355
GCGATGAA: 0.125
CCAATGGG: -0.153
ATACGCGA: 0.156
AGGGGCGG: 0.237
CTGGATAC: -0.0491
ACGCAATA: 0.172
CGTTCGAC: 0.0259
GAACACTA: -0.00798
ACGTAGTC: -0.0616
CTTCTCTA: -0.112
ACTTACGG: 0.261

Sample 3
Target: RING finger protein unkempt homolog, zinc fingers 1-6, GST-SBP tag (UNK, Homo sapiens, UniProt Q9C0B0, residues 30-357)
Technique: RNA Bind-n-Seq
Molecule type: RNA
Sample: in vitro
Concentration: not given
Setting: RNA with constant flanks, human-mouse chimeric sites, ends assumed
Reference: input RNA pool
Reading: higher = stronger binding
Measurement: bound/input enrichment
Target sequence (chain): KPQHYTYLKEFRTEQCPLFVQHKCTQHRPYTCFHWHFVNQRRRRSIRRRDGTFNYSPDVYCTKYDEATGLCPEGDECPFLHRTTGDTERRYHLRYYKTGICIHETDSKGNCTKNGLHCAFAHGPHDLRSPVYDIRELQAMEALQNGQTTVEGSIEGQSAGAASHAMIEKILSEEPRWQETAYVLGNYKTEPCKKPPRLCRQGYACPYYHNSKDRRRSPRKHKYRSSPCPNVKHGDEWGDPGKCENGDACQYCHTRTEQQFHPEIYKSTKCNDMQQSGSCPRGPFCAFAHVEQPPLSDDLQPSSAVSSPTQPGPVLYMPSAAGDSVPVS
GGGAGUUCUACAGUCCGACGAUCAAAGAAUGGAUAGAGUGUGCACACGGGAUCGGUGGGACCCGGGCGAAAAAGGAGUGCAAGAUAGAGUUCGAUGACUUCGUAGAGUGUUUGCUUCGGUACAAAACGAUGAGGCGAAUGCAUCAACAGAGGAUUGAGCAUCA: 0.621 ratio
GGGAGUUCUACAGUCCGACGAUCGGCUGCUGGUGACUGUCCUGGAGUGGCUGGAGUUCCCGCCGGAGCGCGGCCAGACUAAUUUUAGAAAAUGCCAAGUAGGAAGUUUGUUGAGGGUGAAGUGGUAAGAGGCCGAUGGCCUGGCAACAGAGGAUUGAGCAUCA: 9.61 ratio
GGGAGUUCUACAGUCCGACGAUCGCACUUGGGAAUGUAAUCAGCGCCUUGGGGGACAAGAGCAAGAGAGCCACCCAUGUCCCUUACAGAGACUCUAAGCUGACAAGACUCCUACAGGAUUCCCUUGGGGGUAACAGCCAAACCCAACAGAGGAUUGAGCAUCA: 0.135 ratio
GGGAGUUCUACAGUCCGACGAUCCUUAAUGAUAUUUUGAGUGAAUAAAUGAAGCUAAAAUGUCUGCUUUUGGUACAACACGCAUUAAUAAAAGGUUAAGUUUUGUUUUCCACUGAAGUACUAUUUAACAUACAUCUCAGAAACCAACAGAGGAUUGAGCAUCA: 0.0984 ratio
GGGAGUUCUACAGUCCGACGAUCUUAUCCAAGACUCAACGAAAGACUCCAACGGUUAUUCAUAAACAUUACCAAAUACAUCGGAUUCGACAUUUUUAUAUGAGAAAAGUCAAAUUUACUCAACAGAAUUACCAUGAUAGACUGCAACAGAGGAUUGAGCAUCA: 0.45 ratio
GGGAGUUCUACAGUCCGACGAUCCACGUGUCUGCAGUACUUGAUGUGGACUACUCUCCCACUGGGAAGGAAUUUGUGUCUGCCAGCUUUGAUAAAUCUAUUAGAAUCUUUCCUGUGGACAAGAGCCGAAGCAGGGAAGUGUAUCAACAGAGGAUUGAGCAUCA: 0.426 ratio
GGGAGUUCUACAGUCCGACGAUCAUAGAUGAAAUUGAUGUGGACCAGGAAGGAAUUGCAGAAAUGAUCCUGGAUGAAAAUGCUAUUGCUCAGGUCCCACGCCCUGGCACAUCUUUGAAACUCCCUGGCACUAACCAAACAGGACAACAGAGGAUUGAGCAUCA: 0.272 ratio

Sample 4
Target: Sal-like protein 4, full length isoform B (SALL4, Homo sapiens, UniProt Q9UJQ4-2, residues 1-616)
Technique: universal PBM
Molecule type: double-stranded DNA, one strand shown
Sample: in vitro
Concentration: not given
Setting: 8-mer, flanks averaged, mean of replicates
Reading: higher = stronger binding
Measurement: E-score
Construct (chain): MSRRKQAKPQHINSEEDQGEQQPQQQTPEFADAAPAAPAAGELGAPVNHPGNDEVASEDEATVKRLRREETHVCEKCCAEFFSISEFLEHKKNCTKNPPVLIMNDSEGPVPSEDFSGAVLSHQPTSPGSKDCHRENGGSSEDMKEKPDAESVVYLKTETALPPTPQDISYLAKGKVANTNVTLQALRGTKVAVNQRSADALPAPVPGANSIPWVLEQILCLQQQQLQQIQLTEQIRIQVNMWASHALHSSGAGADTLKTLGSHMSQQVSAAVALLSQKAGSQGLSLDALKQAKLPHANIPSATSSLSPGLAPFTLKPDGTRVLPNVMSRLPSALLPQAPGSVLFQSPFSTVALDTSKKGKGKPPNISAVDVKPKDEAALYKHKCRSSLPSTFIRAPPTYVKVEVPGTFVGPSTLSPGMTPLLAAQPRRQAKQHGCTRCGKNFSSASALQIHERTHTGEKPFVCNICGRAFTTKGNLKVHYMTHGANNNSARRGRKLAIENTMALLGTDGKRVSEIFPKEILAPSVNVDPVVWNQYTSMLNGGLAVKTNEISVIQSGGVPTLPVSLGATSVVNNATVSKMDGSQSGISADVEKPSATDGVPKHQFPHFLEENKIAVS
GCCGTAAA: -0.0845
CAACCATA: 0.259
GTTAGCGA: 0.125
AGCCCAAT: -0.00442
ATCTACCC: -0.0729
CACGATTC: 0.0187
AACTATAG: 0.197
CGTAGTGC: -0.166
CTTATCCA: 0.135
GTCACGGA: -0.171
AACAGAAC: 0.121
ACTTGGTC: -0.0931
AATCTATC: 0.194
CAGTGCAA: 0.0301
ACTGCAGA: -0.00845
CTGCGCTA: -0.189
GCCTGAGC: -0.309
CCCGGACC: -0.376

Sample 5
Sequence: KITELNPHLMCVLCGGYFIDATTIIECLHSFCKTCIVRYLETSKYCPICDVQVHKTRPLL (BMI1 RING domain (UniProt P35226))
Technique: yeast two-hybrid
Sample: yeast
Setting: mostly zero background
Reference: not given
Reading: higher = stronger interaction
Measurement: lacZ reporter activity
UBE2O UBC core domain (UniProt Q9C0C9): 0
UBE2C UBC core domain (UniProt O00762): 0
UBE2S UBC core domain (UniProt Q16763): 0
UBE2I UBC core domain (UniProt P63279): 0
UBE2Z UBC core domain (UniProt Q9H832): 0
UBE2B UBC core domain (UniProt P63146): 0
UBE2J1 UBC core domain (UniProt Q9Y385): 0

Sample 6
Target: CCNE1, cyclin fold, Cln2 fusion (human)
Technique: yeast growth competition, sequencing
Sample: yeast
Setting: strong parent motif
Reference: not given
Reading: higher = stronger binding
Measurement: normalised enrichment score
Starting sequence: RBL2 docking peptide (human); STTRRRLFVENDS; partner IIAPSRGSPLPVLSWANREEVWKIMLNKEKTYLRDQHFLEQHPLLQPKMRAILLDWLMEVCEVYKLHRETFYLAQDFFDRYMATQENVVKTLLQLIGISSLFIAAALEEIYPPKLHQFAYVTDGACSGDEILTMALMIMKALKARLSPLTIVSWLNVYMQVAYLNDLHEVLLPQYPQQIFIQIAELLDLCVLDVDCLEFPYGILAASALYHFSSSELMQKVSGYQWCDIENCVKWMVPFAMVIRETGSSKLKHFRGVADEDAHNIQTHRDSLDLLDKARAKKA
N11F: 5.36
L7D: -0.121
E10C: 3.23
E10I: 1.59
R5K: 1.87
S1F: 5.76
R6T: 1.54
D12L: 3.58
T3F: 6.6
R6D: 0.374
R6G: -0.125
V9W: 5.56
S13K: 5.49
T3Q: 0.42
F8Y: 0.257
R5I: -0.00836
E10H: 2.87
R4E: 0.315

Sample 7
Target: ABI1, truncated, D143A, DHFR fusion (Arabidopsis thaliana)
Technique: DHFR PCA, deep sequencing
Sample: yeast
Setting: methotrexate growth selection, single substitutions
Together with: (+)-ABA 0.032 µM
Reference: wild-type fitted maximum
Reading: higher = stronger binding
Measurement: relative binding score
Starting sequence: PYL1, truncated, DHFR fusion (Arabidopsis thaliana); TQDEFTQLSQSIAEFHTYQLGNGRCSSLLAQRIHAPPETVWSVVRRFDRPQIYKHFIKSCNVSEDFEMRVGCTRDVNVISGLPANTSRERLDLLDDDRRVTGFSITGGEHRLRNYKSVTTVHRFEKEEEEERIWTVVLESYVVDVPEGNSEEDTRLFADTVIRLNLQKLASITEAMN
G107N: 7.79%
E4V: 38.1%
Q10G: 28.6%
R69K: 55.7%
E130C: 21.6%
T39C: 15.7%
V161L: 61.6%
F157C: 3.6%
G21C: 12.1%

Sample 8
Target: Interferon regulatory factor 7, full length, phosphomimetic (IRF7, Homo sapiens, UniProt Q92985, residues 1-503, S101K/S471D/S472D/S475D/S476D/S477D/S483D/S484D/S487D)
UniProt Q92985, sequence (whole entry, unmodified, looked up): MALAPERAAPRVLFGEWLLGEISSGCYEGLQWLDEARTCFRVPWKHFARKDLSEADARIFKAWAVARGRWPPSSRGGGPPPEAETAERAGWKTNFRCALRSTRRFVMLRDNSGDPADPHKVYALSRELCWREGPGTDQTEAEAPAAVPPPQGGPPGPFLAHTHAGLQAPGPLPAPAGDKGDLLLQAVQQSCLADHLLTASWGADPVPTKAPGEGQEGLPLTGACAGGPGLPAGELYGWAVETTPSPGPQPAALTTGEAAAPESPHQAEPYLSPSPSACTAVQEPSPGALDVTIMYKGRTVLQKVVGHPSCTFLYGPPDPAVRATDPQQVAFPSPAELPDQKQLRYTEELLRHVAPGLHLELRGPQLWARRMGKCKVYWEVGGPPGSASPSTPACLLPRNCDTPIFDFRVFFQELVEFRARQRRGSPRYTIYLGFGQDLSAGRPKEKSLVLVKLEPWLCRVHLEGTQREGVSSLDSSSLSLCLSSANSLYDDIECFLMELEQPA
Technique: protein-binding microarray
Molecule type: double-stranded DNA, one strand shown
Sample: in vitro
Concentration: 250 nM
Setting: 60-bp whole probe
Together with: salmon DNA 0.4 mg/ml
Reference: random background probes
Reading: higher = stronger binding
Measurement: log fluorescence
Shared flanks, not repeated: GCCTAGCAC … GTCTTGATTCGCTTGACGCTGCTG
TTAGAACTCAGACTGGATTAGTGCTAG: -0.264 z-score
GGGCAGGAAACGGAGGACACGTGCTAG: -0.456 z-score
GACGATCTCAGTATCGAGAGGTGCTAG: -0.189 z-score
GACGGTTTCCTTATCCTGCCGTGCTAG: 2.8 z-score
TTAGATTTCTGTATCGATTAGTGCTAG: 0.754 z-score
GACGTTATCCTTATCCTGACGTGCTAG: 0.615 z-score
GACGGCATCGGGACTGGGGACGTGCTA: -0.891 z-score
TCACTTTCTGTTTTCTCACTGTGCTAG: 4.68 z-score
TACGGTTTCGACTATCGGGACGTGCTA: 5.77 z-score
GACGATTTCAGTTCCGGGACGTGCTAG: 0.81 z-score
TCATTTCTCAAATGTTTTACTGTGCTA: 1.74 z-score
CTTGATTTTGGTCTTTCTGTGTGCTAG: -0.114 z-score
TTAGATCTCAGTTTCGAATAGTGCTAG: 4.09 z-score
TTGGGTATCGGGTTTCGGTTAGTGCTA: 6.55 z-score

Some of these lines once more (sample 8):
TTAGAACTCAGACTGGATTAGTGCTAG: -0.264 z-score
GGGCAGGAAACGGAGGACACGTGCTAG: -0.456 z-score
GACGATCTCAGTATCGAGAGGTGCTAG: -0.189 z-score
GACGGTTTCCTTATCCTGCCGTGCTAG: 2.8 z-score
TTAGATTTCTGTATCGATTAGTGCTAG: 0.754 z-score
GACGTTATCCTTATCCTGACGTGCTAG: 0.615 z-score
GACGGCATCGGGACTGGGGACGTGCTA: -0.891 z-score
TCACTTTCTGTTTTCTCACTGTGCTAG: 4.68 z-score
TACGGTTTCGACTATCGGGACGTGCTA: 5.77 z-score
GACGATTTCAGTTCCGGGACGTGCTAG: 0.81 z-score
TCATTTCTCAAATGTTTTACTGTGCTA: 1.74 z-score
CTTGATTTTGGTCTTTCTGTGTGCTAG: -0.114 z-score
TTAGATCTCAGTTTCGAATAGTGCTAG: 4.09 z-score
TTGGGTATCGGGTTTCGGTTAGTGCTA: 6.55 z-score
